Assay results collected from several papers.
Each numbered part is a random draw from the data of one study; scales do not carry over between parts.

Study 1
Target: RING finger protein unkempt homolog, zinc fingers 1-6, GST-SBP tag (UNK, Homo sapiens, UniProt Q9C0B0, residues 30-357)
Method: RNA Bind-n-Seq
Form: RNA
Sample: in vitro
Tested at: not given
Setting: RNA with constant flanks, human and mouse sites, ends assumed
Relative to: input RNA pool
Reading: higher = stronger binding
All sequences stand within: GGGAGUUCUACAGUCCGACGAUC … CAACAGAGGAUUGAGCAUCA
Target sequence (chain): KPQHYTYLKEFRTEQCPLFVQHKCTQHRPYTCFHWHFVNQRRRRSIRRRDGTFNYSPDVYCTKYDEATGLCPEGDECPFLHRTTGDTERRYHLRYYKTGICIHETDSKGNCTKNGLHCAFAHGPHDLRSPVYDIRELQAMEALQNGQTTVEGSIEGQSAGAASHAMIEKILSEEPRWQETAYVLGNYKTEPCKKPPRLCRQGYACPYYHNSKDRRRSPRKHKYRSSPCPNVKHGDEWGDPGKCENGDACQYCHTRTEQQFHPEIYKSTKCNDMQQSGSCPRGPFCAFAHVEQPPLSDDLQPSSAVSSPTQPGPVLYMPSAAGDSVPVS
Sequence	bound/input enrichment [ratio]
UCCAAGAGAUAACUUCACCAAGAUGUCCAGUGAUAGGCAAAGGUCCGAUGAUGAGAGCCCCAGCACCAGCAGUGGCAGUUCAGAUGCGGACCAGCGAGACCCAGCCGCUCCAGAGCCUGA	0.0997
CUCAGGGCAGCAGAUGGAUUUUUGUUUGUCGUAGGAUGUGACCGAGGGAAGAUACUCUUUGUCUCAGAGUCUGUCUUCAAGAUCCUCAACUACAGCCAGAAUGAUCUGAUUGGUCAGAGU	0.121
UUUAUUGAUCAGGUCUGUAAAUGUGUACUGAAAAAAAUCAGAGUUUAUUUAUAAAUAGAAUAGUUUAUUUAAAGAGGUAUUUUCCUCCUUGAUAUCAUGGUAUGCAUAAUUCUGUGUGUU	5.36
AGGCUCGUACUCAGUGGGGAGAAGAAAGAGCAAGCAGGCCAGAUGCCUGAGACUGCUGCAGGAGAGCCCACCCCAGAGCCUCCUCGGACUUCAUCACCCACCAGCCUUCCUCCACUUGCC	0.0563
CUGAAAGCUGCCAUUUCAGAACGUGAAGAGGUUAGAGGGAGAAGUGAACUGUUUCAUCCUGUUAGUGUAGACUGUAAGCUAAGGCAAAAAGCAACCACAAGAGCUGACACCGAUGUAGAC	1.17
UCCAGCCUUUCCUGACUCACCUCCAUCUUCGGUUCUUCAGUUUUCUGAGAAGAGUUGGGAUAUGUGGGAAGGGGCAUGGGAGCUCGGCAGCCUCCGCCUGCCAGGAAGGCAGUUUCGCCU	0.0708

Study 2
Target: Replicase polyprotein 1ab, nsp13 helicase (rep, Severe acute respiratory syndrome coronavirus 2, UniProt P0DTD1)
Action: inhibitor
Tested at: 20 µM
SMILES	inhibition [%]
Cc1cnc(C(=O)O)c[n+]1[O-]	8.29
FC(F)(F)c1cccc(-c2noc(-c3cc(-c4ccccc4)c(C(F)(F)F)s3)n2)c1	5.07
CC[C@@H](CO)NC(=O)[C@@H]1C=C2c3cccc4[nH]cc(c34)C[C@H]2N(C)C1	3.83
CC(=O)OCC(=O)[C@@]1(O)CC[C@H]2[C@@H]3CCC4=CC(=O)CC[C@]4(C)[C@H]3C(=O)C[C@@]21C	-4.22
CO/N=C(\C(=O)N[C@@H]1C(=O)N2C(C(=O)[O-])=C(C[n+]3ccn4ncccc43)CS[C@H]12)c1nsc(N)n1	-0.77
C[C@H](NCc1ccc(OCc2cccc(F)c2)cc1)C(N)=O	-2.01
CC1=C(/C=C/C(C)=C/C=C/C(C)=C/C(=O)Nc2ccc(O)cc2)C(C)(C)CCC1	12.8
COc1cccc(OC)c1-c1cc(C(=O)NC(CC(C)C)C(=O)O)nn1-c1ccnc2cc(Cl)ccc12 (centres unmarked)	4.35
CCNC(=O)C#Cc1ccc2c(C(=Nc3ccc(CN(C)C)cc3)c3ccccc3)c(O)[nH]c2c1	7.1
C#Cc1cccc2c1c(C(=O)c1ccc(Cn3c(C)nc4cnccc43)c(F)c1)cn2C(=O)N(C)C	-1.01
O=C1COc2c(CCNCCN(C(=O)CCNCCc3ccc(Cl)c(Cl)c3)C3CCCCC3)ccc(O)c2N1	25.5
CCN1/C(=C/C(C)=O)Sc2ccc(OC)cc21	4.77
CCO[C@H]1O[C@@H]2O[C@@]3(C)CC[C@H]4[C@H](C)CC[C@@H]([C@H]1C)[C@@]24OO3	-2.61
Clc1ccc(Nc2nnc(Cc3ccncc3)c3ccccc23)cc1	6
O=C(COc1ccc(C(=O)c2ccccc2)cc1)NC1CCN(Cc2ccccc2)CC1	0.58
CCn1c(-c2nonc2N)nc2cncc(C(=O)N3CC[C@H](N)C3)c21	1.59
CCOC(=O)c1c(C)n(C)c2ccc(O)cc12	-0.16
Cc1cc(OCCCS(C)(=O)=O)cc(C)c1-c1cccc(COc2ccc3c(c2)OC[C@H]3CC(=O)O)c1	18.7
CCCCCCCCCCCCCCCC(=O)O[C@@H]1[C@@H](O)[C@@H](O)[C@@H]([C@H](NC(=O)[C@@H]2C[C@@H](CCC)CN2C)[C@H](C)Cl)O[C@@H]1SC	1.78
CCN(CC)CCCCC1CCN(CC(=O)N2c3ccccc3C(=O)Nc3cccnc32)CC1	1.93
CN1C(=O)C(Cc2c[nH]c3ccccc23)NC1=S (centres unmarked)	2.16
C=C1/C(=C\C=C2/CCC[C@]3(C)[C@@H]([C@H](C)/C=C/[C@@H](O)C4CC4)CC[C@@H]23)C[C@@H](O)C[C@@H]1O	25

Study 3
Target: RNA binding protein fox-1 homolog 2, RRM domain, GST-SBP tag (RBFOX2, Homo sapiens, UniProt O43251-10, residues 100-194)
Method: RNA Bind-n-Seq
Form: RNA
Sample: in vitro
Tested at: 365 nM
Setting: natural RNA segment, single round, ends assumed
Relative to: no-protein control
Reading: higher = stronger binding
All sequences stand within: GGGAGUUCUACAGUCCGACGAUC … UGGAAUUCUCGGGUGCCAA
Target sequence (chain): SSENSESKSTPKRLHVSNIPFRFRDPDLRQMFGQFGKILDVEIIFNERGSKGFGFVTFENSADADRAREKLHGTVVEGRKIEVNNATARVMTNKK
Sequence	RBNS enrichment (R)
GGCUCUGGCUCCCUAACACCUGAAUCCCAGAUGAUGGGAAGUAUGUUUUCAAGUGUGGGGAGGAUAUGAAAAUGUUCUGUUCUCACUUUUGGCUUUAUGUCCAUUUUACC	0.228
CCUUUCAGGCCCUACUGAGACAGGUGAUGGGAAUUUUUUCUUUAUUUUUUAGGUUAACUGAGCUGCUUUGUGCUCAGAAUCUACAUUCCAGAUUGAGGAUUUAGUGUCUU	0.624
UCUAAUCAAGCUAAUUGGUUACUGAAAUGACAUAUUUAUCCCAACUUCUGUACCUUUGCACAAACUCUACCCUCUGACCCUCCACUACCAUCAUACUGACACUCUUUUCC	1.72
AAGCAUUUGAUAGAAAUCUGUCUUGCAGCACUGUCUUCACAUUUAAUGUUGCUUUCUCUUCUAGUCUCGGGUAUGUUUAAAUGAUUCCCUUUUCUCACUCUAGCGCCAAU	0.434
UGGACUGGCUAUAACCAUAAGCCAGGCGCUUUCACCAAGAUGGCUGGUGGCCAAGGUGGGCAGUAGGCAUGAGCUUCCAGCAGGAAAGGACAAGAGAGUAGGCAGGCUUA	1.76
GGCUGCAGAGGAGUCAGGCGGGAAGAGAGGAGUCGGAGAAGCACACAAGGUCCUUGUGCAGGAGUCCCCAGAGACCUAGCUGCAGCUCAGGCCGACUGAAGCAGGCCUGG	0.826
UGUUGACCAUGCAGGGAAGUGGCCAAUGUGCCCACUUCCCAUCUCUUCCUUGCGCAUUGUCAGCAUUUCUGAGUGAUUCACAGUGAUGUUUUAUGAUGGUUAGACUUCUG	0.311
ACCCAGUGGACCUGAACUGUUUGGUAGAGCCACCCGGCCCUUCCUUCCUCAUUGUUGUUUGGUAUGCGCACAGUUCCUGUGGGACUGGGCCGUGAGUUUUCCAUUGGAAA	0.692

Study 4
Target: Centromere-binding protein 1, full length, N-terminal tag (CBF1, Saccharomyces cerevisiae, UniProt P17106, residues 1-351)
UniProt P17106, sequence (whole entry, looked up): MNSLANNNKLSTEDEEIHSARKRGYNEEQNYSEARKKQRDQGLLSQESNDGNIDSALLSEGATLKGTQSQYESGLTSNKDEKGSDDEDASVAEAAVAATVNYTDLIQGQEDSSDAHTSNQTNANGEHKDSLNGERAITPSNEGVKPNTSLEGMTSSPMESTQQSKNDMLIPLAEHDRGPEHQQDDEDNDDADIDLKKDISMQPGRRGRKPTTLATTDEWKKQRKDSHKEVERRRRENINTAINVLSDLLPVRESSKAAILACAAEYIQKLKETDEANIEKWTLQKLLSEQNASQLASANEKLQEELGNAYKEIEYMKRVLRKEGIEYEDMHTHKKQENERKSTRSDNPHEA
Method: protein-binding microarray
Form: double-stranded DNA, one strand shown
Sample: in vitro
Tested at: 0.8 µM
Setting: whole 60-bp probe, no competitor
Reading: higher = stronger binding
Sequence	fluorescence intensity
GAATTGTTAATCTGTGACTCAATGAAAAGGATCTAGGTCTTGATTCGCTTGACGCTGCTG	580 a.u.
GAAAGAAAAAAAGATCACGCGACTCTTGCCGGATAGGTCTTGATTCGCTTGACGCTGCTG	3750 a.u.
CTACTTCAAAAATGATACGTGCCATTTGATGGTTTCGTCTTGATTCGCTTGACGCTGCTG	852 a.u.
GAAATTCAAATATATCACGTTGTGAGCAGCCCTTAGGTCTTGATTCGCTTGACGCTGCTG	1140 a.u.

Study 5
Organism: Vesicular stomatitis virus
Observed: pseudovirus infection
Method: FDA-approved drug library screen
Tested at: concentration not given
Setting: SARS-CoV-2 spike pseudotype
Relative to: vehicle
Compound	GFP-positive cells [%]
CN(C)[C@@H]1C(=O)C(C(N)=O)=C(O)[C@@]2(O)C(=O)C3=C(O)c4c(O)cccc4[C@@](C)(O)[C@H]3[C@H](O)[C@@H]12	82.8
S=c1nc[nH]c2nc[nH]c12	91.6
CC(C)[N+]1(C)[C@@H]2CC[C@H]1C[C@@H](OC(=O)C(CO)c1ccccc1)C2.O.[Br-] (some centres unmarked)	94.4

Single results of other studies
SMILES	target	test	setting	quantity	result
Cc1ccsc1C(=CCCN1CCC[C@@H](C(=O)O)C1)c1sccc1C	Replicase polyprotein 1ab, main protease (rep, Severe acute respiratory syndrome coronavirus 2, UniProt P0DTD1)	enzyme activity, inhibitor	20 µM, primary screen	inhibition	35.1%

For quick reference, copied from above (study 2):
SMILES	inhibition [%]
CCn1c(-c2nonc2N)nc2cncc(C(=O)N3CC[C@H](N)C3)c21	1.59
CCOC(=O)c1c(C)n(C)c2ccc(O)cc12	-0.16
Cc1cc(OCCCS(C)(=O)=O)cc(C)c1-c1cccc(COc2ccc3c(c2)OC[C@H]3CC(=O)O)c1	18.7
CCCCCCCCCCCCCCCC(=O)O[C@@H]1[C@@H](O)[C@@H](O)[C@@H]([C@H](NC(=O)[C@@H]2C[C@@H](CCC)CN2C)[C@H](C)Cl)O[C@@H]1SC	1.78
